Published values collected from several papers.
Each line is one published result; not all experiments were run side by side.
Organism: Pseudomonas aeruginosa

| Compound | assay | system | setting | MIC |
| --- | --- | --- | --- | --- |
| C#CCO/N=C(\C(=O)N[C@@H]1C(=O)N(S(=O)(=O)O)[C@H]1C)c1csc(N)n1 | microbial growth, agar dilution | ATCC27 |  | 32 µg/mL |
| COc1ccc2ccc(O)c(/C=N/[C@H]3CCCC[C@H]3/N=C/c3cc(C(C)(C)C)ccc3O)c2c1 | microbial growth, broth dilution |  |  | > 40 µM |
| CC[C@H]1OC(=O)[C@H](C)[C@@H](O[C@H]2C[C@@](C)(OC)[C@@H](O)[C@H](C)O2)[C@H](C)[C@@H](O[C@@H]2O[C@H](C)C[C@H](N(C)C)[C@H]2O)[C@](C)(OC)C[C@@H](C)C(=O)[C@H](C)[C@@H](O)[C@]1(C)O | microbial growth | ATCC27853 |  | > 32 µg/mL |
| N=C(N)NCCC[C@@H]1NC(=O)[C@H](CCCNC(=N)N)NC(=O)[C@@H](C(c2ccccc2)c2ccccc2)NC(=O)[C@H](Cc2c[nH]c3ccccc23)NC(=O)[C@@H](C(c2ccccc2)c2ccccc2)NC(=O)[C@@H](CCCNC(=N)N)NC(=O)[C@@H](CCCNC(=N)N)NC1=O |  | ATCC 27853 |  | 32 µg/mL |
| CC[C@H](C)[C@H](NC(=O)[C@H](CCC(N)=O)NC(=O)[C@H](Cc1ccccc1)NC(=O)[C@H](CC(N)=O)NC(=O)[C@H](CCCCN)NC(=O)[C@H](CC(C)C)NC(=O)[C@H](CCCNC(=N)N)NC(=O)[C@H](CCCCN)NC(=O)[C@H](CCCCN)NC(=O)[C@@H](NC(=O)[C@H](CO)NC(=O)[C@H](CCCCN)NC(=O)CNC(=O)[C@H](CC(C)C)NC(=O)[C@H](CCCCN)NC(=O)[C@H](CCCCN)NC(=O)[C@H](CC(C)C)NC(=O)[C@H](CCCCN)NC(=O)[C@H](CCCCN)NC(=O)[C@H](CCCNC(=N)N)NC(=O)[C@H](CC(C)C)NC(=O)CNC(=O)[C@@H](N)CCCNC(=N)N)[C@@H](C)CC)C(=O)NCC(=O)N[C@@H](Cc1ccccc1)C(=O)N[C@@H](CO)C(=O)N[C@H](C(=O)N1CCC[C@H]1C(=O)N[C@@H](Cc1ccccc1)C(=O)N[C@@H](C)C(=O)NCC(=O)O)C(C)C | broth microdilution | PA14 |  | 8.93 µM |
| Cc1cccc(C(=O)Oc2cccccc2=O)c1 | broth microdilution | ATCC 27853, CAMHB | 16 to 24 h, ≥80% growth inhibition | > 71.4 µM |
| Oc1c(Br)cc(Br)c2nc3c(C(F)(F)F)cc(C(F)(F)F)cc3nc12 |  |  |  | ≥ 100 µM |
| CCCCCCCCCCCC(=O)Oc1c(C)c(OC)c2c(/C=C/c3ccccc3)c(CCCCCCCCCC)c(=O)oc2c1C | microbial growth, broth dilution | ATCC27853 |  | 5000 µg/mL |
| CO[C@@H]1[C@@H](OC(N)=O)[C@@H](O)[C@H](Oc2ccc3c(O)c(NC(=O)c4ccc(O)c(CC=C(C)C)c4)c(=O)oc3c2C)OC1(C)C | broth microdilution | pyocyanin non-producing |  | 1020 µg/mL |
| CCCCCCn1cc[n+](CCCCCCOc2cc(OCCCCCC[n+]3ccn(CCCCCC)c3)cc(OCCCCCC[n+]3ccn(CCCCCC)c3)c2)c1.[Br-].[Br-].[Br-] |  | PAO1 |  | 4 µM |
| C#CCNC(=O)C(C)(C)O/N=C(\C(=O)N[C@@H]1C(=O)N(S(=O)(=O)O)[C@H]1C)c1csc(N)n1 | microbial growth, agar dilution | ATCC27 |  | 64 µg/mL |
| CCCCCCCC[N+](C)(C)CCCCOc1cc(OCCCC[N+](C)(C)CCCCCCCC)cc(OCCCC[N+](C)(C)CCCCCCCC)c1.[Br-].[Br-].[Br-] |  | PAO1 |  | 16 µM |
| C=CCO/N=C(\C(=O)N[C@@H]1C(=O)N(OS(=O)(=O)O)C1(C)C)c1nsc(N)n1 | agar dilution | ATCC 27853 |  | 16 µg/mL |
| COc1ccc2ccc(O)c(/C=N/[C@H]3CCCC[C@H]3/N=C/c3ccccc3O)c2c1 | microbial growth, broth dilution |  |  | > 40 µM |
| C/C(=C\c1ccc(O)cc1)C(=O)Nc1ccc(C(=O)N[C@@H](Cc2c[nH]nn2)C(=O)Nc2ccc(C(=O)Nc3ccc(C(=O)Nc4ccc(C(=O)O)cc4)cc3)cc2)cc1 | broth microdilution | ciprofloxacin-sensitive |  | 32 µg/mL |
| CC[C@H]1OC(=O)[C@H](C)[C@@H](OC(=O)Cc2ccc3c(c2)OCO3)[C@H](C)[C@@H](O[C@@H]2O[C@H](C)C[C@H](N(C)C)[C@H]2O)[C@](C)(OC)C[C@@H](C)C(=O)[C@H](C)[C@@H](O)[C@]1(C)O |  | PAO397, five efflux pumps deleted |  | 32 µg/mL |
| CC1(C)[C@H](NC(=O)/C(=N\OC2(C(=O)O)CCCCC2)c2csc(N)n2)C(=O)N1OS(=O)(=O)O | agar dilution | PAO1 |  | 8 µg/mL |
| COc1cc(C(=O)Nc2ccc(C(=O)O)c(O)c2)ccc1NC(=O)c1ccc(NC(=O)[C@H](Cc2c[nH]nn2)NC(=O)c2ccc(NC(=O)/C(C)=C/c3ccc(O)cc3)cc2)cc1 | broth microdilution | ciprofloxacin-resistant |  | 32 µg/mL |
| CC[C@H](C)[C@H](NC(=O)[C@@H](CCCNC(=N)N)NC(=O)[C@H](CCCNC(=N)N)NC(=O)[C@@H]1CCCN1C(=O)[C@@H]1CCCN1C(=O)[C@H](CCCNC(=N)N)NC(=O)[C@@H]1CCCN1C(=O)[C@H](CCCNC(=N)N)NC(=O)[C@@H]1CCCN1C(=O)[C@H](CC(C)C)NC(=O)[C@H](Cc1ccc(O)cc1)NC(=O)[C@@H]1CCCN1C(=O)[C@@H]1CCCN1C(=O)[C@H](CCCNC(=N)N)NC(=O)[C@H](CC(=O)O)NC(=O)[C@@H](N)C(C)C)C(=O)N[C@@H](Cc1ccc(O)cc1)C(=O)N[C@@H](CC(N)=O)C(=O)N[C@H](CCCNC(=N)N)C(N)=O | broth microdilution | DSM 1117 | 18 h, 37 °C, 25% MHB2 | 64 µg/mL |
| CC[C@H]1OC(=O)[C@H](C)[C@@H](O[C@H]2C[C@@](C)(OC)[C@@H](O)[C@H](C)O2)[C@H](C)[C@@H](O[C@@H]2O[C@H](C)C[C@H](N(C)C)[C@H]2O)[C@](C)(O)C[C@@H](C)CN(C)[C@H](C)[C@@H](O)[C@]1(C)O | broth microdilution | pyocyanin non-producing |  | 8 µg/mL |
| CC(C)C[C@@H]1NC(=O)[C@@H](CC(C)C)NC(=O)[C@H](CCN)NC(=O)[C@@H](NC(=O)[C@H](CCN)NC(=O)[C@@H](N)[C@@H](C)O)CCNC(=O)[C@H]([C@@H](C)O)NC(=O)[C@H](CCN)NC(=O)[C@H](CCN)NC1=O | broth microdilution | ATCC 10145, cation-adjusted Mueller-Hinton broth |  | > 138 µM |
| COc1c(NC(=O)c2ccc(NC(=O)[C@H](Cc3c[nH]nn3)NC(=O)c3ccc(NC(=O)/C(C)=C/c4ccc(O)cc4)cc3)cc2)ccc(C(=O)Nc2ccc(C(=O)O)cc2)c1O | broth microdilution | ciprofloxacin-sensitive |  | 4 µg/mL |
| CC[C@H]1OC(=O)[C@H](C)[C@@H](OC(=O)Cc2c(F)cc([N+](=O)[O-])cc2F)[C@H](C)[C@@H](O[C@@H]2O[C@H](C)C[C@H](N(C)C)[C@H]2O)[C@](C)(OC)C[C@@H](C)C(=O)[C@H](C)[C@@H](O)[C@]1(C)O |  | PAO397, five efflux pumps deleted |  | 32 µg/mL |
| CN[C@H](CC(C)C)C(=O)N[C@H]1C(=O)N[C@@H](CC(N)=O)C(=O)N[C@H]2C(=O)N[C@H]3C(=O)N[C@H](C(=O)N[C@H](C(=O)O)c4cc(O)cc(O)c4-c4cc3ccc4O)[C@H](O)c3ccc(c(Cl)c3)Oc3cc2cc(c3O[C@@H]2O[C@H](CO)[C@@H](O)[C@H](O)[C@H]2O[C@H]2C[C@](C)(NCc3ccc(OCc4cn(CC(=O)N[C@H](C(=O)N[C@@H](CCN)C(=O)N[C@H]5CCNC(=O)[C@H]([C@@H](C)O)NC(=O)[C@H](CCN)NC(=O)[C@H](CCN)NC(=O)[C@H](CC(C)C)NC(=O)[C@@H](CC(C)C)NC(=O)[C@H](CCN)NC5=O)[C@@H](C)O)nn4)c(OC)c3)[C@H](O)[C@H](C)O2)Oc2ccc(cc2Cl)[C@H]1O | broth microdilution | ATCC 10145, cation-adjusted Mueller-Hinton broth | 18 to 20 h, 37 °C, 0.002% polysorbate 80 | 64 µg/mL |

Excerpt of the above:
| Compound | assay | system | setting | MIC |
| --- | --- | --- | --- | --- |
| C#CCNC(=O)C(C)(C)O/N=C(\C(=O)N[C@@H]1C(=O)N(S(=O)(=O)O)[C@H]1C)c1csc(N)n1 | microbial growth, agar dilution | ATCC27 |  | 64 µg/mL |
| CCCCCCCCCCCC(=O)Oc1c(C)c(OC)c2c(/C=C/c3ccccc3)c(CCCCCCCCCC)c(=O)oc2c1C | microbial growth, broth dilution | ATCC27853 |  | 5000 µg/mL |
| CC[C@H]1OC(=O)[C@H](C)[C@@H](O[C@H]2C[C@@](C)(OC)[C@@H](O)[C@H](C)O2)[C@H](C)[C@@H](O[C@@H]2O[C@H](C)C[C@H](N(C)C)[C@H]2O)[C@](C)(O)C[C@@H](C)CN(C)[C@H](C)[C@@H](O)[C@]1(C)O | broth microdilution | pyocyanin non-producing |  | 8 µg/mL |
| C=CCO/N=C(\C(=O)N[C@@H]1C(=O)N(OS(=O)(=O)O)C1(C)C)c1nsc(N)n1 | agar dilution | ATCC 27853 |  | 16 µg/mL |
